Measured values gathered from unrelated publications.
Lines come from different studies, so protocols differ. Several values in a cell are separate wells, animals, samples, runs or records. ± marks the error that the study gave.
T1: RNA aptamer; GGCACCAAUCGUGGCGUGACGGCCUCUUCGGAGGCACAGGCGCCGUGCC
UniProt Q9Y6G9, sequence (whole entry, looked up): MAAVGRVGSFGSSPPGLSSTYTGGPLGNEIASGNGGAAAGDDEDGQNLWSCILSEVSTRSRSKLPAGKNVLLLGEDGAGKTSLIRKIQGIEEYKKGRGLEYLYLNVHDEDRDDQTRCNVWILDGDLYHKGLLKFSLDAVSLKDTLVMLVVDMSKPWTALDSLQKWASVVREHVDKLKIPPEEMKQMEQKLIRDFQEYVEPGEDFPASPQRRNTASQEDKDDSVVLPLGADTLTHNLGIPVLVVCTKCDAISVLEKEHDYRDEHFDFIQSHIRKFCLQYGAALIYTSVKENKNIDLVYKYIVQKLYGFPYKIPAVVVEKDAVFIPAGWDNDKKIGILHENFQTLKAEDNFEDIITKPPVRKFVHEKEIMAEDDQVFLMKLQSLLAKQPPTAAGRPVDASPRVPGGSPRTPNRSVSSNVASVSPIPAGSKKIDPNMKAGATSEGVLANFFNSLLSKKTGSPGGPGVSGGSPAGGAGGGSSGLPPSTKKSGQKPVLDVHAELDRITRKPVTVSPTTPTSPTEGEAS
UniProt P00519, sequence (whole entry, unmodified, looked up): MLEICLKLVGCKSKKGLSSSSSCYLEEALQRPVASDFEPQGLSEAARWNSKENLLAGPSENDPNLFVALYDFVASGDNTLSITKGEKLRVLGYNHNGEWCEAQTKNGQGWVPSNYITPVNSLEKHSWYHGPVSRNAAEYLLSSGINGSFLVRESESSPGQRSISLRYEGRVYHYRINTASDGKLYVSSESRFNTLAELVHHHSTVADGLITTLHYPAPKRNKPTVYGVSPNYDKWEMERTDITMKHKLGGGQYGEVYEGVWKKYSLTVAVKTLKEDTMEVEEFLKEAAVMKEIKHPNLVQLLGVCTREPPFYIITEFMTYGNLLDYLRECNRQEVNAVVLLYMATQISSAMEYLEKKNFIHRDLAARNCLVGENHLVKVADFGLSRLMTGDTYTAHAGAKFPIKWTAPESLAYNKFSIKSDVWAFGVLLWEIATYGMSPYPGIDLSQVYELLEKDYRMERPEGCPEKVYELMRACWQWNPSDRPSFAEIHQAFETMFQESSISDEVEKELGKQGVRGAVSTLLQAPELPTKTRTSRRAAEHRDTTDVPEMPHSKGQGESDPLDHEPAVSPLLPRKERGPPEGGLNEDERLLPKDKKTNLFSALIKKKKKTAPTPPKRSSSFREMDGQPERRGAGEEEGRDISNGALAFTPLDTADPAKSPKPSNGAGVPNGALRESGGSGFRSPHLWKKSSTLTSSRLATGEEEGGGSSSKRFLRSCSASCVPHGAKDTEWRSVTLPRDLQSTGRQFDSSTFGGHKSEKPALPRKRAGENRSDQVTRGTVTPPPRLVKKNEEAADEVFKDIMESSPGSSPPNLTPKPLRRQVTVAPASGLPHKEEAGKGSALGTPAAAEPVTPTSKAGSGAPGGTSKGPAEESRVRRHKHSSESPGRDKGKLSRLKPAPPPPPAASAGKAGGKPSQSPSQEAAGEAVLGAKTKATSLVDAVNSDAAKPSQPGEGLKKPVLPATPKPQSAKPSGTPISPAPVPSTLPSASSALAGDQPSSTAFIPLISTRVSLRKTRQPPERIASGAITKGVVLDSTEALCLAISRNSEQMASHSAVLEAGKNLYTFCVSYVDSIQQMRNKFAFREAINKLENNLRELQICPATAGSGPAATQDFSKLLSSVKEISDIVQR
UniProt Q13133, sequence (whole entry, looked up): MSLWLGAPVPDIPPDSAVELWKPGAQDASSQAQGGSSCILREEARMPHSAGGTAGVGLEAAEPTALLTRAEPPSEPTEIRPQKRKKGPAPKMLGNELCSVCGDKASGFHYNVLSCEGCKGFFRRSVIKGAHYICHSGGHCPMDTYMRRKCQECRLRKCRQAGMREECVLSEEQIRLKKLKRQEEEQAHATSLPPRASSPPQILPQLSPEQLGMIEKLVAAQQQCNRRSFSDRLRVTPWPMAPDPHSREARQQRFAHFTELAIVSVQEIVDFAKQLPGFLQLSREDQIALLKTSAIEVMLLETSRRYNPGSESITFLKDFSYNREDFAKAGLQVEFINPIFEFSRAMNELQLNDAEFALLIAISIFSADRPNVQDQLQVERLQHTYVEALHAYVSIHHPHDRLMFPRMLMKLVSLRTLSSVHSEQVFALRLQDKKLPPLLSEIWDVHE
UniProt P51575, sequence (whole entry, unmodified, looked up): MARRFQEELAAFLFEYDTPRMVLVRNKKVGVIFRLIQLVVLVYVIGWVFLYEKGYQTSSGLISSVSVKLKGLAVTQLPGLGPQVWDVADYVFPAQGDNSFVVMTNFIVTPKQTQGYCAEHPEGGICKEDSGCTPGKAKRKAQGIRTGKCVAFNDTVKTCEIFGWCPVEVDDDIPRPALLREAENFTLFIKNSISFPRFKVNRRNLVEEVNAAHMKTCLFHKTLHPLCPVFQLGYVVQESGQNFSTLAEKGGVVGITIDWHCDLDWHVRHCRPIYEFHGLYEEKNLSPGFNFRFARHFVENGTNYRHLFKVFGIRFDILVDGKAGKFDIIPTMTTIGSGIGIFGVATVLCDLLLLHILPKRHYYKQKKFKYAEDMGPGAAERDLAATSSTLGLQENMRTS
UniProt Q9UH17, sequence (whole entry, looked up): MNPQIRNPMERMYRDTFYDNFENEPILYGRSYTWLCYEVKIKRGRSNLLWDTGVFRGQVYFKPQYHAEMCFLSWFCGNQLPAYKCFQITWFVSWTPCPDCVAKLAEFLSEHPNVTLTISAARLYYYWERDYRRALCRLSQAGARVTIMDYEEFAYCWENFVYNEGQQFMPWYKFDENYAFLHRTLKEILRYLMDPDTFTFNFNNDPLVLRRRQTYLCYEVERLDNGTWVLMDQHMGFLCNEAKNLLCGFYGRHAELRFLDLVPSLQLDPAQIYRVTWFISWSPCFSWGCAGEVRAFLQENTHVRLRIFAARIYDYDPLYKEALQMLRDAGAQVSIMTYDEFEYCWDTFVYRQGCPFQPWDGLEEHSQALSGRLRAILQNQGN
UniProt Q01105, sequence (whole entry, looked up): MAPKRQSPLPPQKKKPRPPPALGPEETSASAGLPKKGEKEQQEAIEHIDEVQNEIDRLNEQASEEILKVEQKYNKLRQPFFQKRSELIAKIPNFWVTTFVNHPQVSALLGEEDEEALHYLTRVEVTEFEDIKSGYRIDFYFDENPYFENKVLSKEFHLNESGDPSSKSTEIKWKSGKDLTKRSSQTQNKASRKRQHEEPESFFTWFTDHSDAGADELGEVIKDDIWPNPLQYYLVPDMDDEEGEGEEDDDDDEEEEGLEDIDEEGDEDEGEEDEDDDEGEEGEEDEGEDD
UniProt Q13043, sequence (whole entry, looked up): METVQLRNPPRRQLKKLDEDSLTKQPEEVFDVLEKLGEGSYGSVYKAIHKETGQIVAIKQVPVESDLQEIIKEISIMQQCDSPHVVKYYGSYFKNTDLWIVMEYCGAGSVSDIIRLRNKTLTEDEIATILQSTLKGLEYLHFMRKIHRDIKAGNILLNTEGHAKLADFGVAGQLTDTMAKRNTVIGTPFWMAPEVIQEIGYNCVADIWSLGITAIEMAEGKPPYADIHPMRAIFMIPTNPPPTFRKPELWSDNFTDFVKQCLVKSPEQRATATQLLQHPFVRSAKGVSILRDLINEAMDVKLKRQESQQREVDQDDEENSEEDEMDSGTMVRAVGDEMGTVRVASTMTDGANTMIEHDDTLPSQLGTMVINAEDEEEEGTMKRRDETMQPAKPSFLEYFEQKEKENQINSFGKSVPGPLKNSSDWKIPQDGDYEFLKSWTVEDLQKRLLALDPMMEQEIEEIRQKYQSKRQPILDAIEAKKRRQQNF
UniProt P0AC13, sequence (whole entry, looked up): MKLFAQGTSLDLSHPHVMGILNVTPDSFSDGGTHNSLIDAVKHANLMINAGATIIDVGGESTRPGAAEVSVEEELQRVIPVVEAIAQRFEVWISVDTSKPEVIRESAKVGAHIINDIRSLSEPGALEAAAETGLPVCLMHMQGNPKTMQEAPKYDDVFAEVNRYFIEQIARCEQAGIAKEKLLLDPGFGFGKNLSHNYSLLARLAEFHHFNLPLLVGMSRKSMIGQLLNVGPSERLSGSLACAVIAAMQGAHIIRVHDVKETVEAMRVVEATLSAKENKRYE
UniProt P25090, sequence (whole entry, looked up): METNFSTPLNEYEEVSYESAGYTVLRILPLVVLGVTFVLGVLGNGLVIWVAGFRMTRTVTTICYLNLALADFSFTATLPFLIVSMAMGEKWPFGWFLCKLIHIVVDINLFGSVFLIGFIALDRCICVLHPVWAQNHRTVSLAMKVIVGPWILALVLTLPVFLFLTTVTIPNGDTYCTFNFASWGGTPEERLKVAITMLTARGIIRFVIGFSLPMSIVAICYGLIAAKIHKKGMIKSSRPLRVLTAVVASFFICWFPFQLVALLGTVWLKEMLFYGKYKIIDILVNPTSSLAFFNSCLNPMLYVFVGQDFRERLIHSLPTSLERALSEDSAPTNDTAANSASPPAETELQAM
UniProt Q4U2R8, sequence (whole entry, looked up): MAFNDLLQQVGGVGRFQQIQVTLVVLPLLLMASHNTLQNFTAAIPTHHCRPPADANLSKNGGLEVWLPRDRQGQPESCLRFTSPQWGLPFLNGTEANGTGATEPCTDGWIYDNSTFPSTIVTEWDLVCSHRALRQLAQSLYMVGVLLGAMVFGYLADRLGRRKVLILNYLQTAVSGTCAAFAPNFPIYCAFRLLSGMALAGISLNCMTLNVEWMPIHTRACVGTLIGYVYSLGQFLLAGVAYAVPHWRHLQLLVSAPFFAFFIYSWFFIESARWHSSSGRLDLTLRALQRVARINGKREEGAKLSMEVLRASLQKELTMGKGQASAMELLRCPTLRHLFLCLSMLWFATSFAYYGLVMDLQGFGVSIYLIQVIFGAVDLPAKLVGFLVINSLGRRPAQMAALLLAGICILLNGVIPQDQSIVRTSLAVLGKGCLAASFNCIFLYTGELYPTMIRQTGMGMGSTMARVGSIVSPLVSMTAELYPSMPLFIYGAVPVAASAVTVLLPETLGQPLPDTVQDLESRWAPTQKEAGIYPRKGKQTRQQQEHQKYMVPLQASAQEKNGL

Compound = O=C1C[C@@H](c2ccccc2)Oc2cc(O)cc(O)c21; target = Aryl hydrocarbon receptor (Danio rerio, UniProt Q9YGV3); test = reporter gene, agonist, luciferase reporter; system = ZF-4; setting = 4.572 µM; how to read = baseline: vehicle control; measurement = fold change; result = 0.976
Compound = COc1ccc(Cl)cc1C(=O)NCCc1ccc(S(=O)(=O)NC(=O)NC2CCCCC2)cc1; target = Solute carrier family 22 member 6 (SLC22A6, Homo sapiens, UniProt Q4U2R8); system = cells expressing hOAT1; setting = together with: 6-carboxyfluorescein; how to read = baseline: compound over cidofovir; measurement = affinity ratio; result = ~60 fold
Compound = N#Cc1ccc(C[C@@H](Nc2nnc(-c3ccc(F)cc3)s2)C(=O)N2CCc3ccccc32)cc1; target = N-formyl peptide receptor 2 (FPR2, Homo sapiens, UniProt P25090); test = cell-based; setting = concentration not given; measurement = activity; result = inactive
Compound = CCCCCCCCCCCCC/C=C/[C@@H](O)[C@H](CO)NC(=O)CCCCCCCCCCCCCCCCC; target = Protein SET (SET, Homo sapiens, UniProt Q01105); test = lipid binding, GFP pull-down LC-MS/MS; system = A549 overexpressing GFP-tagged protein; setting = unit not given; how to read = baseline: vector-transfected cells; measurement = bound endogenous lipid; result = 35.9
Compound = CN(CCO)c1ccc(/C=C(\C#N)c2ccc(C#N)cc2)cc1; target = T1, RNA aptamer; test = fluorescence titration, Hill fit; setting = apparent; measurement = Kd; result = 71.5 nM
Compound = COc1cc(Nc2ncc3c(n2)-c2ccc(Cl)cc2C(c2c(F)cccc2OC)=NC3)ccc1C(=O)O; target = FGFR1; test = kinase activity; setting = 1 µM; measurement = remaining activity; result = 18%
Compound = CC[C@@H]1[C@H](F)C(=O)N[C@@H]1COc1nccc2cc(C(N)=O)c(OC)cc12; target = Serine/threonine-protein kinase 4 (STK4, Homo sapiens, UniProt Q13043); test = ATP-site probe binding, ActivX profiling, item: MST1; system = THP-1 cell lysate; setting = 0.01 mM, Lys1 site; measurement = inhibition; result = -7.6%
Compound = O=c1nc(SCc2cc(F)cc(C(F)(F)F)c2)nc(SCc2csc3ccc(Cl)cc23)[nH]1; target = DNA topoisomerase 2-alpha (TOP2A, Homo sapiens, UniProt P11388); test = DNA cleavage; setting = 3.9 µM, replicate 2; measurement = linear DNA; result = 0%
Compound = CCOC(=O)C(C)c1n[nH]c2nc(N)[nH]c(=O)c2c1=O (stereo not shown); target = Dihydropteroate synthase (folP, Bacteria, UniProt P0AC13); test = CETSA HiBiT; system = Escherichia coli, whole cells; setting = concentration not given; how to read = baseline: DMSO; measurement = melting temperature shift; result = 1.65 °C
Compound = O=C(Nc1cccc2c(=O)cc(-c3nnn[nH]3)oc12)c1ccc(OCCCCc2ccccc2)cc1; target = LRRC8A/LRRC8C (Homo sapiens, UniProt Q8IWT6+Q8TDW0, E6A); test = whole-cell patch clamp; system = HCT116 LRRC8-/- transfected; setting = at -100 mV; measurement = Hill coefficient; result = 1.33
Compound = O=C(COP(=O)(O)O)[C@@H](O)[C@H](O)[C@H](O)COP(=O)(O)O; target = Cytoplasmic dynein 1 light intermediate chain 1 (DYNC1LI1, Homo sapiens, UniProt Q9Y6G9); test = thermal proteome profiling; system = HepG2 cell lysate; setting = concentration not given, 57 over 37 °C; how to read = baseline: compound over control; measurement = thermal stability ratio; result = 0.565 and 0.75 and 0.655
Compound = Cc1cnn2ncc(-c3ccnc(N(C)C)n3)c2c1; target = Tyrosine-protein kinase ABL1 (ABL1, Homo sapiens, UniProt P00519, F317I); test = KINOMEscan; setting = 1 µM; measurement = remaining binding; result = 100% and 69%
Compound = C=C1C(=O)O[C@@H]2C[C@@]3(C)CCCC(=C)[C@@H]3C[C@H]12; target = Oxysterols receptor LXR-alpha (NR1H3, Homo sapiens, UniProt Q13133); test = reporter gene, Gal4 hybrid reporter; setting = 10 µM; how to read = baseline: vehicle; measurement = activation; result = 1.23 fold
Compound = CCC1(O)CCCN(C(=O)c2ccc(-c3ccc(F)c(NC(=O)CCl)c3)cc2)C1 (stereo not shown); target = DNA dC->dU-editing enzyme APOBEC-3B, C-terminal domain (Homo sapiens, UniProt Q9UH17); test = covalent modifier, intact protein mass spectrometry; setting = 125 µM, 1 h, 5-fold molar excess; measurement = unmodified protein; result = 52% and 64%
Compound = Nc1ncnc2c1ncn2[C@@H]1O[C@H](COP(=O)(O)CP(=O)(O)OP(=O)(O)O)[C@@H](O)[C@H]1O; target = P2X purinoceptor 1 (P2RX1, Homo sapiens, UniProt P51575, K136A); test = saturation binding; system = HEK293; setting = 13 nM; measurement = specific binding; result = 906 CCPM and 739 CCPM
Compound = CC[C@H](C)[C@H](NC(=O)[C@H](CCCNC(=N)N)NC(=O)[C@H](Cc1c[nH]cn1)NC(=O)[C@H](CCCNC(=N)N)NC(=O)[C@H](CC(=O)O)NC(=O)[C@H](CC(=O)O)NC(=O)[C@@H](NC(=O)[C@H](CC(=O)O)NC(=O)[C@@H]1CCCN1C(=O)[C@@H](N)CC(C)C)[C@@H](C)O)C(=O)N[C@@H](CCC(=O)O)C(=O)N[C@@H](CCC(=O)O)C(=O)N[C@@H](CCCCN)C(=O)N[C@@H](CCCNC(=N)N)C(=O)N[C@@H](CCCCN)C(=O)N[C@@H](CCCNC(=N)N)C(=O)N[C@H](C(=O)N[C@@H](C)C(=O)N[C@@H](CCC(=O)O)C(=O)N[C@H](C(=O)N[C@@H](Cc1ccccc1)C(=O)N[C@@H](CCCCN)C(=O)N[C@@H](CO)C(=O)N[C@H](C(=O)N[C@@H](CCSC)C(=O)N[C@@H](CCCCN)C(=O)N[C@@H](CCCCN)C(=O)N[C@@H](CO)C(=O)N1CCC[C@H]1C(=O)N[C@@H](Cc1ccccc1)C(=O)N[C@@H](CC(N)=O)C(=O)NCC(=O)N1CCC[C@H]1C(=O)O)[C@@H](C)CC)[C@@H](C)O)[C@@H](C)O; target = NF-kappa-B inhibitor alpha (Homo sapiens, UniProt P25963); test = binding, ITC; setting = pH 7.5, 293 K, 50 mM NaCl; measurement = ΔH; result = -2.3 ± 0.01 kcal/mol

Excerpt of the above:
Compound = O=C(COP(=O)(O)O)[C@@H](O)[C@H](O)[C@H](O)COP(=O)(O)O; target = Cytoplasmic dynein 1 light intermediate chain 1 (DYNC1LI1, Homo sapiens, UniProt Q9Y6G9); test = thermal proteome profiling; system = HepG2 cell lysate; setting = concentration not given, 57 over 37 °C; how to read = baseline: compound over control; measurement = thermal stability ratio; result = 0.565 and 0.75 and 0.655
